Results pooled from the literature.
Protocols differ between the studies behind these lines. “And” joins repeats or separate records; there may be more than shown. Numbers after ± are the reported error.

| SMILES | test | system | setting | scale | quantity | result |
| --- | --- | --- | --- | --- | --- | --- |
| CN(Cc1cc(C2CC2)on1)C(=O)c1cccc(-c2ccc(F)cc2)c1 | – | male ICR/CD-1 mouse, liver microsomes | 2 µM, 30 min, pH 7.5, with: 1-aminobenzotriazole 500 µM, preincubated 30 min | – | remaining compound | 76.9% |
| CCCCN1C(=O)c2cccc3c(NCCCCCCCCN4CCOCC4)ccc(c23)C1=O | – | toluene | – | – | Stokes shift | 77 nm |
| CCC1CNC(CC)CN(C(C(=O)[O-])c2ccc(C(=O)[O-])cc2)C(CC)CN(CC(=O)[O-])C(CC)CN1.[Mn+2] (centres unmarked) | ICP-MS | BALB/c mouse, heart | intravenous, 0.05 mmol/kg, 1440 min, without anaesthesia | – | Mn content | 0.62 ± 0.02 µg/g |
| Cc1cc(-c2ccc(C(=O)[C@@H]3CCCC[C@H]3C(=O)Nc3cnn4c3C(=O)NCC4)cc2)[nH]n1 | – | human, faeces | oral, 200 mg, 0-168 h | relative to: dose | cumulative recovery of radioactivity | 72.9% |
| Cc1c(-c2ccc(N3CCc4cccc(C(=O)Nc5nc6ccccc6s5)c4C3)nc2C(=O)O)cnn1CC12CC3CC(CC(C3)C1)C2 | – | anaesthetised rat | intravenous infusion, 100 mg/kg, 85 min | relative to: baseline | platelet count | 5.4% |
| CC[C@H](C)[C@H](NC(=O)[C@H](Cc1ccccc1)NC(=O)[C@H](CCC(=O)O)NC(=O)[C@H](CCCCN)NC(=O)[C@H](C)NC(=O)[C@H](C)NC(=O)[C@H](CCC(N)=O)NC(=O)CNC(=O)[C@H](CCC(=O)O)NC(=O)[C@H](CC(C)C)NC(=O)[C@H](Cc1ccc(O)cc1)NC(=O)[C@H](CO)NC(=O)[C@H](CO)NC(=O)[C@@H](NC(=O)[C@H](CC(=O)O)NC(=O)[C@H](CO)NC(=O)[C@@H](NC(=O)[C@H](Cc1ccccc1)NC(=O)[C@@H](NC(=O)CNC(=O)[C@H](CCC(=O)O)NC(=O)[C@H](C)NC(=O)[C@@H](N)Cc1c[nH]cn1)[C@@H](C)O)[C@@H](C)O)C(C)C)C(=O)N[C@@H](C)C(=O)N[C@@H](Cc1c[nH]c2ccccc12)C(=O)N[C@@H](CC(C)C)C(=O)N[C@H](C(=O)N[C@@H](CCCNC(=N)N)C(=O)NCC(=O)N[C@@H](CCCNC(=N)N)C(=O)NCC(=O)O)C(C)C | – | male ICR mice, plasma | intravenous bolus, 1 mg/kg | – | clearance | 105 mL/min/kg and 101 mL/min/kg and 254 mL/min/kg |
| COc1ccc(Nc2nc(Nc3ccc(OCCOCC[18F])cc3)ncc2Br)cc1 | – | ICR mice, S180 tumour | intravenous, 370 kBq, 60 min | relative to: tumour over muscle | uptake ratio | 1.72 |
| C=CC(=O)Nc1ccc(OC)c(-c2c[nH]c3ncc(-c4cncc(C(=O)N(C)C)c4)cc23)c1 | HPLC | acetonitrile/water/DMSO | 50 µM, 37 °C, DIPEA 20 eq, with: N-α-acetyl-lysine | – | reactivity half-life | > 1440 min |
| C=CC(=O)Nc1cc(Nc2nccc(-c3c[nH]c4ccccc34)n2)c(OC)cc1N(C)CCN(C)C | storage stability | human plasma | 2 h, on ice, LQC level | – | recovery | 103% |
| N#C[C@@H]1CC(F)(F)CN1C(=O)CNC(=O)c1ccnc2c(NC(=O)C(N)CCCCNC(=O)CCOCCOCCOCCOCCOCCOCCNC(=O)CN3CCN(CC(=O)[O-])CCN(CC(=O)[O-])CCN(CC(=O)[O-])CC3)cccc12.[68Ga+3] (some centres unmarked) | – | human serum | 30 min, 37 °C, 68Ga-labelled | – | radiochemical stability | 99.41 ± 0.5% |
| C=C(NC(=O)c1csc(-c2nc3c(cc2O)-c2nc(cs2)C(=O)NC(C(C)O)C(=O)NC(=C(C)OC)c2nc(cs2)C(=O)NC2c4nc(cs4)C(=O)NC(COC(=O)c4c5c6c(cccc6n4O)COC(=O)C(OC4CC(C)(O)C(N(C)C)C(C)O4)C2OC5)c2nc-3cs2)n1)C(N)=O (centres unmarked) | – | male cynomolgus monkey, plasma | intravenous, 1 mg/kg, single dose, infusion | – | Tmax | 1.8 min |
| O=C1c2sc(-c3ccc(N4CCC(CO)CC4)nc3F)nc2CCN1c1cccnc1 | – | CD1 mouse, brain | i.v., dose not given, 0.033 h | – | concentration | 781 ng/g and 782 ng/g and 690 ng/g |
| CN1CCC[C@]1(C)/C=C/S(=O)(=O)NC(=O)Nc1c2c(cc3c1CCC3)CCC2 | item: neutrophil count decreased, possibly related | human | oral, 100 mg twice daily, 14 days, multiple ascending dose | – | subjects with adverse event | 0% |
| COc1ccc2c(c1)CCn1c[n+]3c(c1-2)-c1ccc(OC)cc1CC3 | – | female NSG mice, blood | 6 mg/kg, day 20, 5 days per week | – | Hematocrit | 43.1 ± 0.85% |
| CC[C@H](C)[C@H](NC(=O)[C@H](Cc1ccc(O)cc1)NC(=O)[C@@H](NC(=O)[C@H](CCCNC(=N)N)NC(=O)[C@@H](N)CC(=O)O)C(C)C)C(=O)N[C@@H](Cc1c[nH]cn1)C(=O)N1CCC[C@H]1C(=O)O | LC-MS/MS | Sprague-Dawley rat, both sexes, plasma | subcutaneous, 10 mg/kg/day, day 27, 1 h, 60 min | – | plasma concentration | 19 ng/mL |
| CC(=O)N([O-])CCCCCNC(=O)CCC(=O)N([O-])CCCCCNC(=O)CCC(=O)N([O-])CCCCCN.[89Zr+4] | radio-TLC | aqueous buffer | 7 d, pH 7, 37 °C, 89Zr-labelled complex, with: DTPA 100-fold excess | – | intact complex | 93.3 ± 2.7% |
| O=C(Nc1cnccc1-c1ccc([18F])nc1)c1ccnc(NC(=O)C2CC2)c1 | – | FVB/NJ mice (both sexes), heart | intravenous, dose not given, 120 min | – | SUV | 0.108 |
| N#C[C@@H]1CC(F)(F)CN1C(=O)CNC(=O)c1ccnc2c(NC(=O)CCOCCOCCOCCOCCOCCOCCNC(=O)[C@H](CCCCNC(=O)CN3CCN(CC(=O)[O-])CCN(CC(=O)[O-])CCN(CC(=O)[O-])CC3)NC(=O)CCCc3ccc(I)cc3)cccc12.[177Lu+3] | – | PBS | 24 h, 37 °C, 177Lu-labelled | – | radiochemical stability | 98.1 ± 3.2% |
| OCC1OC(n2cnc3c(NCc4ccc(Br)s4)ncnc32)C(O)C1O (centres unmarked) | equilibrium dialysis | mouse plasma | 0.05 µg/mL, 4 h, pH 7.4 | – | fraction unbound | 0.058 |
| COc1ccc2c(c1)CN(C(=O)CCN1CCC(Cc3ccccc3)CC1)CC[S+]2[O-] (centres unmarked) | – | dog plasma | 250 ng/mL | – | fu | 0.299 |
| CCCCN1C(=O)c2cccc3c(NCCCCN4CCOCC4)ccc(c23)C1=O | – | chloroform | – | – | fluorescence quantum yield | 0.6 |
| Cc1nc(N)nc2c1C(=O)N[C@@H](c1ccc(F)cc1-c1cccc(O[11CH3])n1)C2 | ex vivo biodistribution | mice, U87 subcutaneous xenograft, blood | 60 min post-injection, baseline, vehicle pre-treatment | – | SUV | 0.6 ± 0.1 |

| SMILES | test | system | setting | scale | quantity | result |
| --- | --- | --- | --- | --- | --- | --- |
| N#C[C@@H]1CC(F)(F)CN1C(=O)CNC(=O)c1ccnc2c(NC(=O)C(CCCCNC(=O)CCOCCOCCOCCOCCOCCOCCNC(=O)CN3CCN(CC(=O)[O-])CCN(CC(=O)[O-])CCN(CC(=O)[O-])CC3)NC(=O)CCCc3ccc(I)cc3)cccc12.[68Ga+3] (some centres unmarked) | – | human serum | 60 min, 37 °C, 68Ga-labelled | – | radiochemical stability | 98.83 ± 0.1% |
| O=S(=O)(N[C@H]1CCO[C@@H](C2c3ccccc3CCc3ccccc32)C1)c1ccc(OC(F)(F)F)cc1 | – | mouse, brain homogenate | oral, 30 mg/kg, 2 h | – | brain concentration | 1160 ng/g |
| C/C(N)=N/C(=N\S(=O)(=O)c1ccc(C(F)(F)F)cc1)N1C[C@H](c2ccccc2)C(c2ccc(Cl)cc2)=N1 | – | Beagle dog, plasma | oral, 36 mg/kg | – | Cmax | 2490 ng/mL |
| O=C(Nc1cnccc1-c1ccc([18F])cc1)c1ccnc(NC(=O)C2CC2)c1 | ex vivo gamma counting | GSK-3β transgenic mice, late-stage, heart | intravenous, 1.26 MBq/animal, 120 min, mean, no P-gp inhibitor | – | SUV | 0.23 |
| O=C([O-])CN1CCN(Cc2cccc(C(=O)[O-])n2)CCN(CP(=O)([O-])[O-])CC1.[18F][Sc+2] | item: intact complex | phosphate-buffered saline | 4 h | – | radiochemical stability | 97% |
| CCCCN1C(=O)c2cccc3c(NCCN4CCOCC4)ccc(c23)C1=O | – | dioxane | – | – | Stokes shift | 82 nm |
| [123I]c1ccc2nc(-c3ccc(-n4ccnn4)nc3)cn2c1 | – | male Wistar rat, liver | intravenous, 4 MBq, 5 min | – | tracer uptake | 3.5 %ID/g |
| Cc1ccccc1Nc1ncnc2[nH]c(/C=C/c3ccccc3)nc12 | HPLC | solution | after 1 h light exposure | – | purity | 82% |
| CNc1cc(N)c(C(N)=O)c[n+]1C | substrate, item: methylated product | rats, plasma | oral, 30 mg/kg, 1.00 h | – | plasma concentration of product | 199 nM and 191 nM |
| CC[C@H](C)[C@@H]1NC(=O)[C@H](Cc2ccc(O)cc2)NC(=O)CCCSC[C@@H](C(=O)N(CC(=O)N[C@@H](CC(C)C)C(=O)NCC(N)=O)Cc2ccc(F)cc2)NC(=O)[C@H](CC(N)=O)NC(=O)[C@H](CCC(N)=O)NC1=O | – | human, plasma | intranasal, 400 µg, single dose | – | terminal half-life | 36 min |
| O=C1c2sc(-c3ccc(N4CCC(F)C4)nc3F)nc2CCN1c1cccnc1 (centres unmarked) | – | CD1 mouse, brain | i.v., dose not given, 0.083 h | – | concentration | 344 ng/g and 444 ng/g and 448 ng/g |
| [2H]C([2H])([18F])Oc1cc(C(=O)OCC2CCN(CCCC)CC2)ccc1N | radioligand hydrolysis, esterase inhibitor | rhesus monkey plasma | concentration not given | – | inhibition | 94 ± 2% |
| CCCCCCCCCCCCCCCC(=O)N[C@@H](CCCCN)C(=O)N[C@@H](CCCCN)C(=O)N[C@@H](CO)C(=O)N[C@@H](CCCNC(=N)N)C(=O)N[C@@H](C)C(=O)N[C@@H](CC(C)C)C(=O)N[C@@H](Cc1ccccc1)C(N)=O | – | human patients, plasma | intravenous, 0.5 mg/kg over 2 h | – | terminal half-life | 78.6 min |
| CCCCCCCOc1ccc(CC[C@](N)(CO)COP(=O)(O)O)cc1C(F)(F)F | – | healthy men, urine and plasma | oral, 0.25 mg once daily, day 21, fed state | – | renal clearance | 0.0297 mL/min |
| COc1cc(N2CCN(C(=O)C3CCCN3)CC2)ccc1Nc1ncc(Cl)c(Nc2ccccc2P(C)(C)=O)n1 (centres unmarked) | – | nude mice, NCI-H3122 xenograft | oral, dose not given, day 11 | – | body weight | 23 g and 23.2 g and 24.6 g and 22.6 g and 22.9 g |
| CCCCN1C(=O)c2cccc3c(NCCCN4CCOCC4)ccc(c23)C1=O | – | dichloromethane | – | – | Stokes shift | 74 nm |
| [2H]C([2H])([2H])C1(C([2H])([2H])[2H])NC(=O)N(c2ccc(F)c(C(C)(F)F)c2)C1=O | – | dog, plasma | intravenous, 1 mg/kg | – | Vd | 0.32 L/kg and 0.33 L/kg |
| CCCCN1C(=O)c2cccc3c(NCCCCCN4CCOCC4)ccc(c23)C1=O | – | dioxane | – | – | Stokes shift | 80 nm |
| COc1cccc(OC)c1-c1cc(C(=O)NC2(C(=O)O)C3CC4CC(C3)CC2C4)nn1-c1ccc(C(=O)N(C)CCCN(C)CCCN(C)C(=O)[C@H](CCCCNC(=O)[C@H](CC(C)C)NC(=O)C2OC2C(=O)O)NC(=O)CN2CCN(CC(=O)[O-])CCN(CC(=O)[O-])CCN(CC(=O)[O-])CC2)cc1C(C)C.[177Lu+3] (mixture of isomers) | – | mouse, HT-29 xenograft, HT-29 tumour | 4 h post injection | – | tissue uptake | 16.5 %ID/g |
| CN(O)C(=O)CCC(=O)NCCCN(CCCCN(CCCNC(=O)CCC(=O)N(C)O)C(=O)CCC(=O)N(C)O)C(=O)CCC(=O)N(C)O.[89Zr] | radio-TLC | aqueous buffer | 7 d, pH 8.5, 37 °C, 89Zr-labelled complex, with: DTPA 1000-fold excess | – | intact complex | 98.2 ± 1.4% |
| CCn1nc(Cl)c2c1-c1cnc(N)c(c1)O[C@H](C)c1cc(F)ccc1-c1nn(C)cc1C2 | – | Balb/c nude mouse, female, plasma | 0.2 mg/kg, single dose, 12 h | – | free plasma concentration | 0.63 nM |
| CCCCN1C(=O)c2cccc3c(NCCCCCCN4CCOCC4)ccc(c23)C1=O | – | acetonitrile | – | – | Stokes shift | 91 nm |
